Published values gathered from unrelated publications.
Numbered parts are unrelated; each lists some results of a single study.

Study 1
Target: Fragile X messenger ribonucleoprotein 1, C-terminal low-complexity region (Fmr1, Mus musculus, UniProt P35922)
Technique: RNA Bind-n-Seq
Molecule type: RNA
Medium: in vitro
Tested at: 200 nM
Notes: whole 134-nt RNA, ends assumed
Together with: 150 mM LiCl
Relative to: input library
Reading: higher = stronger binding
All molecules: 7-deaza-guanosine replaces G
Constant ends, left off below: GGGAGUUCUACAGUCCGACGAUC … UGGAAUUCUCGGGUGUCAAGG
Oligonucleotide | log2 enrichment
UGGGAGGUGGAUUUUGUUUAUUUUUUUAGCUCAUUUCCAGGGGUGGGAAUUUUUUUUUAAUAUGUGUCAUGACUAAAGUUGUUUUUGAAA | 0.255
GUCCUGUGCUACACAUCGUAUGUACCGAAUCGGGUUUUUGGGGUUUUUGGGGUUUUUGGAAAGUAUUAUGUUACGCCGUUCGGAUCUGCA | -0.795
UCCAUGCAGGUGGGCAUCUUUGGGAAGUGGGGCAAGGGGGGGAUAGGGAGGGGGGUAACACUUUGGGAACAGGUGGUCCCAGGUCGUUUC | 1.32
AGUCCUGUGCUACACAUCGUAUGUACCGAAUCAAAUUUAAACCCCCCCAAACCCAAAAAAGUAUUAUGUUACGCCGUUCGGAUCUGCACU | 1.39
UCCAAACCCAAGAAAAAGAAAUCUUUUUCCAAGGAGGAGUUGAUGAGUAGCGAUCUUGAAGAGACCGCUGGCAGCACCAGUAUUCCCAAG | -1.78
CACAGACAACACGCACCCACACAGACACAGAGGGAAGGGGUUGGGAUGGGGACAGGGUGCACAGCAGGGCGGGGUAGGACCCCAAAACCU | -1.21
UAGAGACUUCAGAUGGAUUUUAAAAUUGAACACACUUGGGAUGGUUUUCCAGUGAAGCAUGAGCCCGUAUUUAUCAGGCUGAAUCCAGGU | -2.35
UUUUCAAGGGGGCCCCAACUGGGGCCGCCUUGUAGCCUUCUUUGUCUUUGGGGCUGCACUGUGUGCUGAGAGUGUCAACAAGGAGAUGGA | -1.43
CUGUGCUACACAUCGUAUGUACCGAAUCGGGCCCCCCCGGGCCCCCCCGGGGCCCCCCCGGAAAGUAUUAUGUUACGCCGUUCGGAUCUG | -1.55
GUCCUGUGCUACACAUCGUAUGUACCGAAUCAAAUUUUUAAACCCCCAAACCCCCAAAAAAGUAUUAUGUUACGCCGUUCGGAUCUGCAC | 1.07
CCUGUGCUACACAUCGUAUGUACCGAAUCGGGGAAAAAAAGGGGAAAAAAAGGGGUGGGGAAAGUAUUAUGUUACGCCGUUCGGAUCUGC | 0.823

Study 2
Target: ATP-dependent RNA helicase DDX3X, helicase core (DDX3X, Homo sapiens, UniProt O00571, residues 132-607)
Sequence of UniProt O00571 (132-607, looked up): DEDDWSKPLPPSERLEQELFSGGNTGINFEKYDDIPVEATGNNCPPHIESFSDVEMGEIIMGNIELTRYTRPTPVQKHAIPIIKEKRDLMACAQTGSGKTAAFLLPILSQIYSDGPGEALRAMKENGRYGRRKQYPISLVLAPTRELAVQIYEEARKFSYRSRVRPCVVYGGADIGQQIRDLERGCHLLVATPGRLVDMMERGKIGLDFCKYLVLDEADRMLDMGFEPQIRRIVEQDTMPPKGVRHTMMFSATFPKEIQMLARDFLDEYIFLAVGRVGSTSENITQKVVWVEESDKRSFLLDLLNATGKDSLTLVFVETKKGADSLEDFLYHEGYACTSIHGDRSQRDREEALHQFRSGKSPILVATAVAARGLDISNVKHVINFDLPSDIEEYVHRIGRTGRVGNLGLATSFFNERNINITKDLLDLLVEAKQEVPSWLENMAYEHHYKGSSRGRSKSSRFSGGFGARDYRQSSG
Technique: RNA Bind-n-Seq
Molecule type: RNA
Medium: in vitro
Tested at: 90 pmol
Notes: 4-mer, random 30-nt RNA, single round
Together with: 3 µM DMDA-PatA, 2 mM ADP, 2 mM phosphate
Relative to: input library
Reading: higher = stronger binding
Oligonucleotide | 4-mer enrichment [fold]
UGCC | 0.851
UUGA | 0.984
CCUU | 0.831
GCGC | 1.1
GUCG | 0.994
AAAG | 1.17
GCAA | 1.01
GUUG | 1.08
ACUG | 0.789
AAGC | 0.984
CGAA | 1
AGAU | 0.929
CAAC | 0.973
CUGU | 0.823
CGCA | 1.02
UCUU | 0.81

Study 3
Target: Histone acetyltransferase KAT6A, winged helix 1, GST fusion (KAT6A, Homo sapiens, UniProt Q92794, residues 1-85)
Technique: protein binding microarray
Molecule type: double-stranded DNA, one strand shown
Medium: in vitro
Tested at: not given
Notes: 8-mer, flanks averaged, mean of 2 arrays, mostly near background
Relative to: not given
Reading: higher = stronger binding
Residues (chain): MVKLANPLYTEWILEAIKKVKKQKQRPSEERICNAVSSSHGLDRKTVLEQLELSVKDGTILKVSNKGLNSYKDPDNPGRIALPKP
Oligonucleotide | E-score
AACGGCCG | 0.387
AGGCGAGA | -0.145
GTAAGTGA | -0.0936
ACGGAAAG | 0.237
TGTTTGAA | -0.258
CGTGGGAA | 0.032
GACGGATA | 0.264
AAGGGGCG | 0.127
GCCATATA | 0.116
ACTTAATA | -0.138
TCTACAAA | -0.0969
GTCCACAC | -0.085
ACCATGCC | 0.194
GGGGTCAC | 0.0231
ATAAGGAG | -0.00876
GGGTCTCA | 0.14
TCTTTTAA | -0.168
AGTGGCTA | -0.0954
ATTGGTTA | -0.246
GCAACCTA | -0.142
AAAATTTA | -0.206
ATTGCGTC | 0.158

Study 4
Target: RNA binding protein fox-1 homolog 2, RRM domain, GST-SBP tag (RBFOX2, Homo sapiens, UniProt O43251-10, residues 100-194)
Technique: RNA Bind-n-Seq
Molecule type: RNA
Medium: in vitro
Tested at: 365 nM
Notes: natural RNA segment, single round, ends assumed
Relative to: no-protein control
Reading: higher = stronger binding
Constant ends, left off below: GGGAGUUCUACAGUCCGACGAUC … UGGAAUUCUCGGGUGCCAA
Residues (chain): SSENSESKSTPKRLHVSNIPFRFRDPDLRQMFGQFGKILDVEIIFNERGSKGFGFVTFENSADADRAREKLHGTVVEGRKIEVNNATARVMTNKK
Oligonucleotide | RBNS enrichment (R)
ACCAUUUAUUAUACAUAUAAUCUAUUGAAUAUAAAAAGAUUCACCUUGAAAUAAUAUUUGACUAUAUAGGUACAUAUCUGUAAAAGAUGACCACCUUAACUAAAUCAGAU | 0.374
AAAAAAUUAGCUGGGUGUGAUGGCACACACCUGUUGUCCCAGCUACUCAAGAAGCUGAGAUGGGAGGAUCCUGAGCUCAGGAGGUCAAGGCUGCAGUGAGCCGAGAUUGU | 0.426
CAAAACCAGCAUCUGUUACUGGAACAGAGACCUCAGCCCAAGCUCAGGACAAGGAGGCCUCCCUGGGAGAGGGGGCCUUUCUCCCACCAUCACCGCCUGUGUCCUUCAGG | 3.16
GGCAUUUUUAAAGCAUUUCCCAACAGAAGAGCAACUAGCAAUAAAAUCCAGCUUUUGUUUGCCAGCCAAAUAGGGAGAGAUGCUCAAAGAAGCUUCAAGAAAGCACUGGG | 0.434
CAAAAACUUAUGCACCAACUGUGAAUAGCUGCCGCUUGUGCAGAUCCCCAGGGGCUCCCGGUGACACACUGGAAAUGACUGUUCCAGGGGACAGAAAAUACUCAUCUGUC | 0.4
AAUAGUAUGCUCUUUGCUUUGGAAUCUCUAAUUUACGGUCAUGCCCUAAGUCACAGGAUGAUUAUUAGGGAAAUGUCAUUGACACCUGAAAAUUACCUAUCCUGUAAAAA | 0.327
GGAUGCUUUUUUUCCAGGACAGAUAGGUUCUGGAUCUCAGGGGUGAGAUAGGGGGCAGCCUUCAAUGGCAGCUCAUACUUCACCUUCCCCAGACUUGCACUGGGGUAGGA | 0.276
UCUAUAUGCCCCUUAAUAGACUGUGGUUCCUGACGCACACUGUUAGGUCAUUAUUUUGUUGUACCAAAGUUCUAGUGGCUUCAGAAAUCAUAGCAUCCAAUGAUUUUUUG | 0.581
CCACAGUAUGAAAUGGAUGCUUCCUCUGCCACCUGUAUACAGGGGCUUUUACUUUGCACACCUUCAUUGCUUAAGAAGAAACUCAGGGUGCUGAGAAAGAUAUGUAUGCU | 0.954
CAACUCAUGCCACAGUAUGUCGUCUUCAUGUGUCUUGCAAUGAACUGUUUCAGUAGCCAAUCCUCUUUCUUAGUAUAUGAAAGGACAGGGAUUUUUGUUCUUGUUGUUCU | 1.32
GCCAUCCCCAUCAGGACCUCAGACCUGGGGUACCUGAACUCUGUCCCUCUGCUGCCGCCUCUGUCUGGAAAUUGGACCAGAAUUCUGAUGUCCCUCCAGCCUCCUCCCCC | 0.43
GUUAGCAUGGAACAGAACGCUUUUCACAAAACAAAGGACUGUUUUACAAAUGAUUAUUCCGACAGUGUGUCGACAUAAACUUUUACAACUGCACAGCAGCCAAAAAAAGA | 5.9

Study 5
Target: RING finger protein unkempt homolog, zinc fingers 1-6, GST-SBP tag (UNK, Homo sapiens, UniProt Q9C0B0, residues 30-357)
Sequence of UniProt Q9C0B0 (30-357, looked up): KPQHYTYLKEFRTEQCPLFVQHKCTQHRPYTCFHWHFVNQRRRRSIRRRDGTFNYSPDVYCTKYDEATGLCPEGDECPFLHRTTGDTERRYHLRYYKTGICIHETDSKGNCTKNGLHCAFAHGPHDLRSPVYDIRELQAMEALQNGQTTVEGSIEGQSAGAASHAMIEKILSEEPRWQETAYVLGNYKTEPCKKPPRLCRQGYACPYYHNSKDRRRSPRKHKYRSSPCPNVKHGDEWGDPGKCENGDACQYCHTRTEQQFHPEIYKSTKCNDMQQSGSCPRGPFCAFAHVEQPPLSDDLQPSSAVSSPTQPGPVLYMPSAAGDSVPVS
Technique: RNA Bind-n-Seq
Molecule type: RNA
Medium: in vitro
Tested at: not given
Notes: RNA with constant flanks, ends assumed
Relative to: input RNA pool
Reading: higher = stronger binding
Constant ends, left off below: GGGAGUUCUACAGUCCGACGAUC … CAACAGAGGAUUGAGCAUCA
Oligonucleotide | bound/input enrichment
AGAGAAGAGUUGGUUGAUCGUGUUUUUGAUGAAAGUCUCAACUUCCGAAAGAUACCUCCAUCCGUUCAUUCUAAAACACCAGAAGGAAACAACGGUCGGUCUGUUGACUCGAGGCCUCAG | 0.137 ratio
GAAGUUUGUAUCAACCCAUACCACUAUAAGAGAGUGGAGAGUCCAGUCUUACCUCCAGUAUCCGUGCCUCGUCAUAAUGAAUUCAAUCCACAACACAGCCUUCUGGUUCAGUUUAGGAAC | 1.88 ratio
CCAUAUGAAAUGUGUAGCAGUGGCUUGGUACAAGCACUUCUUACUGUGUUAAACAACCGCAUGGAUUUGGAUAUGAAACAAGAUUGUAGUCAACUGGUAGAAAGAAUAAAUGUUUUUAAA | 12.1 ratio
UCCCCUUCUUUCUCUGCUGAUUUUGCACUUUUCUCUUUGCUCACCACCAAGUGUAAUCAACCGCAAAGCACUGACAGUUCAUAGCAGUAGUGAAAUCUGAAAUAACUAAGAAUUAAUCAG | 0.276 ratio
GCUGCAAAUUCCUGUGUAGUGGCAGGCCCAAGGCCUUCCCAGGGGAACCAUAGGUGGUGGCCGGUGGGACAUGUGGCCACUUGUUUUGCUUUAAAUACCUCAGUCCUUAUUCUGACAGGA | 0.133 ratio
GGCCAGGAACAGUCUUCACGGGGACAAAGAAUUUUAUCUAUUCCAAUUUGGCCCCCAAACCCCGGUAUCUCACAGAACUGUGUGUAUGAGGUACAGCAGGUACCAAAAGUAGAAAAGACA | 0.27 ratio
CCUGCCUCACCAGUUGGUACACUGUUUUCUGAAAGAGGUGGGAUCCAAAAGAGCUGUUUCCCGCUGCACUCCAAGCAUCUGAGACUUUGGGCACAAGGACACUUUUCUUUUCUUUUUUUU | 0.321 ratio
UGAAGUGGUUUUUGUGGGUGUGAAACAAAUGGUGAGAAUUUGAAUUGGUCCCUCUUAUUACCGUAUUGAAAUUAAGUCUACUUAAUUUAUCAAGUCAUGUUCAUGCCCUGAUUUUAUAUA | 0.398 ratio
GCCAUUGAUAGGAAGCGGCACCAUGUACUACAGACGGCUCAUCCCUCCCCUUUGUCAGUGUACCGAGGGUUCUUUGGAUGUAGACACUUUUCAAAGACCAAUGAGCUGCUGCAGAAGUCU | 0.166 ratio
AUCUUUUGGUUAUUCUAAGCCCUUUGCCAUCAAUGAUCAUAUCAAUUGGCAGUGACUUUGUACCGAGAAUUUAAGUAGAAAAGUUGCAGAUGUAUUGACUGUACCACAGACACAAUAUGU | 0.125 ratio
GGGUUUUCUGCCCCAAAAGACCAACAAGUAGUCACAGCAGUAGAGUACCAAGAGGCUAUUUCCGCCUGCAAAACCCCAAAGAAGACUGUUUCCUCCAGAUUAGAGUGGAAGAAACUGGGU | 0.366 ratio
